{"data": "Measured values collected from several papers", "cell line": "HeLa", "note": "± marks the error that the study gave."}
{"SMILES": "C=C(CO)[C@H]1Cc2c(ccc3c2O[C@@H]2COc4cc(OC)c(OC)cc4[C@]2(O)C3=O)O1", "test": "cell growth or viability, MTT", "conditions": "72 h", "IC50": "19.9 µM"}
{"SMILES": "CC(=O)[C@@H]1CCCN1C(=O)[C@@H]1CCCN1C(=O)[C@H](Cc1ccccc1)NC(=O)[C@@H](NC(=O)[C@@H](NC(=O)[C@@H](NC(=O)[C@@H]1CCCN1C(=O)[C@H](C)NC(=O)OC(C)(C)C)C(C)C)C(C)C)C(C)C", "test": "cell growth or viability, SRB", "IC50": "12 µM"}
{"SMILES": "CC1=CC=c2ccc3c4c2[N]1[Re](=[C]=O)(=[C]=O)(=[C]=O)([C]#[N+]c1c(C)cccc1C)[N]4C(C)=CC=3.O=S(=O)([O-])C(F)(F)F", "test": "cell growth or viability, MTT", "conditions": "48 h", "IC50": "1.8 µM"}
{"SMILES": "Cc1nn(-c2ccccc2)c(O)c1C(c1ccccc1O)c1c(C)nn(-c2ccccc2)c1O", "test": "cell growth or viability, MTT", "conditions": "48 h", "IC50": "35.4 µM"}
{"SMILES": "O=C(Cc1ccc2ccccc2c1)N[C@H](Cc1ccccc1)C(=O)N[C@H](Cc1ccccc1)C(=O)N[C@H](Cc1ccc(O)cc1)C(=O)N[C@H](Cc1ccc(OP(=O)(O)O)cc1)C(=O)O", "test": "cell growth or viability, MTT", "IC50": "177 µg/mL"}
{"SMILES": "CC(C)C[C@H](NC(=O)[C@H](CCCCN)NC(=O)[C@H](CC(C)C)NC(=O)[C@H](CC(C)C)NC(=O)[C@H](CCCCN)NC(=O)[C@H](CCCCN)NC(=O)[C@H](CC(C)C)NC(=O)[C@H](CC(C)C)NC(=O)[C@H](CCCCN)NC(=O)[C@H](CC(C)C)NC(=O)[C@H](CC(C)C)NC(=O)[C@H](CCCCN)NC(=O)[C@H](CCCCN)NC(=O)[C@H](CC(C)C)NC(=O)[C@@H](N)CSSC[C@H](N)C(=O)N[C@@H](CC(C)C)C(=O)N[C@@H](CCC(=O)O)C(=O)N[C@@H](Cc1c[nH]cn1)C(=O)N[C@@H](CC(C)C)C(=O)N[C@@H](CC(C)C)C(=O)N[C@@H](CCC(=O)O)C(=O)N[C@@H](Cc1c[nH]cn1)C(=O)N[C@@H](CC(C)C)C(=O)N[C@@H](CCC(=O)O)C(=O)N[C@@H](Cc1c[nH]cn1)C(=O)N[C@@H](CC(C)C)C(=O)N[C@@H](CC(C)C)C(=O)N[C@@H](CCC(=O)O)C(=O)N[C@@H](Cc1c[nH]cn1)C(N)=O)C(N)=O", "test": "cell growth or viability, MTT", "conditions": "pH 7.4", "IC50": "> 100 µM"}
{"SMILES": "N=C(N)NCCC[C@H](NC(=O)[C@H](CCCNC(=N)N)NC(=O)[C@H](CCCNC(=N)N)NC(=O)[C@H](CCCNC(=N)N)NC(=O)[C@H](CCCNC(=N)N)NC(=O)[C@H](CCCNC(=N)N)NC(=O)[C@H](CCCNC(=N)N)NC(=O)[C@H](CCCNC(=N)N)NC(=O)[C@@H](N)CSCC(=O)Nc1ccc(-c2c3nc(c(-c4ccccc4)c4ccc([nH]4)c(-c4ccccc4)c4nc(c(-c5ccccc5)c5ccc2[nH]5)C=C4)C=C3)cc1)C(N)=O", "test": "phototoxicity", "conditions": "2 h plus 18 h, 2.5% FBS, added: irradiation 525 nm for 160 s", "IC50": "3.89 ± 0.453 µM"}
{"SMILES": "CC(C)C[C@H](NC(=O)[C@H](CCCCN)NC(=O)[C@H](CC(C)C)NC(=O)[C@H](CC(C)C)NC(=O)[C@H](CCCCN)NC(=O)[C@H](CCCCN)NC(=O)[C@H](CC(C)C)NC(=O)[C@H](CC(C)C)NC(=O)[C@H](CCCCN)NC(=O)[C@H](CC(C)C)NC(=O)[C@H](CC(C)C)NC(=O)[C@H](CCCCN)NC(=O)[C@H](CCCCN)NC(=O)[C@@H](N)CC(C)C)C(N)=O", "test": "cell growth or viability, MTT", "conditions": "pH 7.4", "IC50": "10.3 µM"}
{"SMILES": "COc1ccc(C(c2c(C)nn(-c3ccccc3)c2O)c2c(C)nn(-c3ccccc3)c2O)cc1OC", "test": "cell growth or viability, MTT", "conditions": "48 h", "IC50": "18.6 µM"}
{"SMILES": "C[C@H]1O[C@@H](O[C@H]2[C@@H](O)C[C@H](O[C@H]3[C@@H](O)C[C@H](O[C@H]4CC[C@@]5(C)[C@H](CC[C@@H]6[C@@H]5C[C@@H](O)[C@]5(C)[C@@H](C7=CC(=O)OC7)[C@@H](O)C[C@]65O)C4)O[C@@H]3C)O[C@@H]2C)C[C@H](O)[C@@H]1O", "test": "cell growth or viability, MTT", "conditions": "48 h", "IC50": "0.63 µM"}
{"note": "A few entries again:"}
{"SMILES": "C=C(CO)[C@H]1Cc2c(ccc3c2O[C@@H]2COc4cc(OC)c(OC)cc4[C@]2(O)C3=O)O1", "test": "cell growth or viability, MTT", "conditions": "72 h", "IC50": "19.9 µM"}
